Published values pooled from the literature.
Several values in a cell are separate wells, animals, samples, runs or records. Numbers after ± are the reported error.

| SMILES | test | system | conditions | scale | measurement | result |
| --- | --- | --- | --- | --- | --- | --- |
| CC[C@H](C)[C@H](NC(=O)[C@H](C)NC(=O)[C@H](CCCCN)NC(=O)[C@H](CCCCN)NC(=O)[C@@H](N)CCCNC(=N)N)C(=O)N[C@@H](CCCCN)C(=O)N[C@@H](CC(C)C)C(=O)N[C@H](C(=O)N[C@@H](CCCCN)C(=O)N[C@@H](CCCCN)C(=O)N[C@@H](CC(C)C)C(=O)N[C@H](C(=O)N[C@@H](CCCCN)C(=O)N[C@@H](CCCCN)C(=O)N[C@@H](CC(C)C)C(=O)N[C@@H](CCCCN)C(=O)N[C@@H](CCCCN)C(=O)N[C@@H](C)C(=O)N[C@@H](CC(C)C)C(=O)N[C@@H](CCCCN)C(=O)O)C(C)C)C(C)C | – | human red blood cells | 0.25 mg/L, 1 h | – | hemolysis | 0.0177% and 0.0707% and 0.23% |
| O=C1NC2(CC2)COc2ncc(F)cc2[C@H]2COCCN2c2ccn3ncc1c3n2 | – | Sprague-Dawley rats, male, blood | oral, 5 mg/kg/day, end of recovery, 4-week subacute toxicity | – | basophil percentage | 0.08 ± 0.04% |
| CSCC[C@H](NC(=O)[C@@H](NC(=O)[C@H](CC(C)C)NC(=O)[C@@H](NC(=O)[C@H](Cc1c[nH]cn1)NC(=O)CCCCCNC(=O)[C@H](CCCNC(=N)N)NC(=O)[C@H](CCCNC(=N)N)NC(=O)[C@H](CCCNC(=N)N)NC(=O)[C@H](CCC(N)=O)NC(=O)[C@H](CCCNC(=N)N)NC(=O)[C@H](CCCNC(=N)N)NC(=O)[C@H](CCCCN)NC(=O)[C@H](CCCCN)NC(=O)[C@H](CCCNC(=N)N)NC(=O)CNC(=O)[C@@H](N)Cc1ccc(O)cc1)C(C)C)C(C)C)C(=O)N[C@@H](CS)C(=O)N[C@@H](C)C(=O)N[C@H](C(N)=O)[C@@H](C)O | – | C57BL/6J mice | Alzet osmotic pump, 3 mg/kg, 8 weeks | – | alkaline phosphatase | 40 U/L and 73 U/L and 75 U/L |
| CC(C)[C@@H]1NC(=O)CNC(=O)[C@H](CC(N)=O)NC(=O)[C@H](CCCNC(=N)N)NC(=O)[C@H](Cc2ccc(O)cc2)NC(=O)[C@H](C(C)C)NC(=O)[C@@H](NC(=O)[C@@H](NC(=O)[C@H](CC(N)=O)NC(=O)[C@H](Cc2c[nH]c3ccccc23)NC(=O)[C@H](C)NC(=O)[C@H](Cc2ccccc2)NC(=O)CNC(=O)[C@H](CCCCN)NC(=O)[C@H](Cc2ccccc2)NC(=O)[C@H](Cc2ccccc2)NC(=O)[C@H](CCCCN)NC(=O)OCC2c3ccccc3-c3ccccc32)C(C)C)CSSC[C@@H](C(=O)N[C@@H](Cc2c[nH]cn2)C(=O)N[C@@H](CCCNC(=N)N)C(=O)N[C@@H](CCCNC(=N)N)C(=O)N[C@@H](C)C(=O)N[C@@H](CC(N)=O)C(N)=O)NC(=O)[C@H](C(C)C)NC(=O)[C@H](CCCNC(=N)N)NC1=O | HPLC | mouse mammary gland homogenate | 2560 µM, 20.00 h, 37 °C, 50 mg/mL tissue | – | remaining peptide | 55.1% and 53.8% and 49% |
| C(#Cc1cncc(OC[C@@H]2CCN2)c1)c1ccccc1 | – | male Sprague-Dawley rat, plasma | oral, 75 mg/kg, 4 h | – | concentration | 360 ng/mL |
| CCCC[C@H]1C(=O)N(C)[C@@H](CCCC)C(=O)N[C@@H](CCCNC(=O)CN2CCN(CC(=O)O)CCN(CC(=O)O)CCN(CC(=O)O)CC2)C(=O)N[C@H](C(=O)NCC(N)=O)CSCC(=O)N[C@@H](Cc2ccc(O)cc2)C(=O)N(C)[C@@H](C)C(=O)N[C@@H](CC(N)=O)C(=O)N2CCC[C@H]2C(=O)N[C@@H](Cc2c[nH]cn2)C(=O)N[C@@H](CC(C)C)C(=O)N(C)CC(=O)N[C@@H](Cc2c[nH]c3ccccc23)C(=O)N[C@@H](CO)C(=O)N[C@@H](Cc2c[nH]c3ccccc23)C(=O)N1C [gallium-68 labelled] | radio-HPLC | Kunming mice, blood | intravenous, 15 min | – | radiochemical purity | 95.9% |
| N#Cc1cc(NC(=O)CCc2nc(-c3ccc(F)cc3Cl)no2)cnc1CC(F)(F)F | – | water | – | – | aqueous solubility | < 1 µg/mL |
| C#Cc1c(F)ccc2cc(O)cc(-c3ncc4c(N5CC6CCC(C5)N6C(=O)OC(OC(=O)CCC)C5CCCCC5)nc(OC[C@@]56CCCN5C[C@H](F)C6)nc4c3F)c12 (stereo partly shown) | refers to: prodrug | mouse whole blood | 1 µM | – | t1/2 | 4.59 min |
| CSCC[C@H](N)C(=O)N[C@@H](C)C(=O)N[C@@H](Cc1c[nH]c2ccccc12)C(=O)N[C@@H](Cc1c[nH]cn1)C(=O)N[C@@H](CC(=O)O)C(=O)N[C@@H](CC(=O)O)C(=O)N[C@@H](CCC(=O)O)C(=O)N[C@@H](CCC(=O)O)C(=O)N[C@@H](Cc1ccccc1)C(=O)N[C@@H](C)C(=O)N[C@@H](CCCNC(=N)N)C(=O)N[C@@H](CCCNC(=N)N)C(=O)N[C@@H](CCCNC(=N)N)C(=O)N[C@@H](CCCNC(=N)N)C(=O)NCCCCCC(=O)NCCCCC(NC(=O)CCCCCNC(=O)[C@H](CCCNC(=N)N)NC(=O)[C@H](CCCNC(=N)N)NC(=O)[C@H](CCCNC(=N)N)NC(=O)[C@H](CCCNC(=N)N)NC(=O)[C@H](C)NC(=O)[C@H](Cc1ccccc1)NC(=O)[C@H](CCC(=O)O)NC(=O)[C@H](CCC(=O)O)NC(=O)[C@H](CC(=O)O)NC(=O)[C@H](CC(=O)O)NC(=O)[C@H](Cc1c[nH]cn1)NC(=O)[C@H](Cc1c[nH]c2ccccc12)NC(=O)[C@H](C)NC(=O)[C@@H](N)CCSC)C(=O)NCCCCC(NC(=O)C(CCCCNC(=O)CCCCCNC(=O)[C@H](CCCNC(=N)N)NC(=O)[C@H](CCCNC(=N)N)NC(=O)[C@H](CCCNC(=N)N)NC(=O)[C@H](CCCNC(=N)N)NC(=O)[C@H](C)NC(=O)[C@H](Cc1ccccc1)NC(=O)[C@H](CCC(=O)O)NC(=O)[C@H](CCC(=O)O)NC(=O)[C@H](CC(=O)O)NC(=O)[C@H](CC(=O)O)NC(=O)[C@H](Cc1c[nH]cn1)NC(=O)[C@H](Cc1c[nH]c2ccccc12)NC(=O)[C@H](C)NC(=O)[C@@H](N)CCSC)NC(=O)CCCCCNC(=O)[C@H](CCCNC(=N)N)NC(=O)[C@H](CCCNC(=N)N)NC(=O)[C@H](CCCNC(=N)N)NC(=O)[C@H](CCCNC(=N)N)NC(=O)[C@H](C)NC(=O)[C@H](Cc1ccccc1)NC(=O)[C@H](CCC(=O)O)NC(=O)[C@H](CCC(=O)O)NC(=O)[C@H](CC(=O)O)NC(=O)[C@H](CC(=O)O)NC(=O)[C@H](Cc1c[nH]cn1)NC(=O)[C@H](Cc1c[nH]c2ccccc12)NC(=O)[C@H](C)NC(=O)[C@@H](N)CCSC)C(N)=O (stereo partly shown) | – | C57BL/6 mouse female, colon | dose not given, 6 h | relative to: total | tissue distribution | 5.34% and 3.95% and 6.95% |
| C=Cc1c(C)c2cc3nc(c(CC(=O)[O-])c4[n-]c(cc5nc(cc1[n-]2)C(C)=C5CC)c(C)c4C(=O)[O-])C(CCC(=O)[O-])C3C.[Cu+2].[Na+].[Na+].[Na+] (stereo not shown) | – | Wistar rat, male | oral, 250 mg/kg daily, 28 days | – | serum ALT | 54.3 ± 5.54 U/L |
| CCN(CC)CCOc1ccc(-c2nnn(Cc3ccc(OC)cc3)c2N)cc1 | – | beagle dog | oral, at least 40 mg/kg | – | heart rate increase | ≤ 21% |
| CC[C@H](C)[C@H](NC(=O)[C@H](CCCCN)NC(=O)CNC(=O)[C@H](CC(C)C)NC(=O)[C@H](Cc1ccccc1)NC(=O)[C@H](CCCCN)NC(=O)[C@H](CO)NC(=O)[C@H](Cc1ccccc1)NC(=O)[C@H](Cc1c[nH]c2ccccc12)NC(=O)[C@H](CCC(N)=O)NC(=O)[C@@H](NC(=O)[C@H](Cc1ccccc1)NC(=O)CCCCCNC(=O)CN1CCN(CC(=O)O)CCN(CC(=O)O)CCN(CC(=O)O)CC1)C(C)C)C(=O)N[C@@H](CCC(=O)O)C(=O)N1CCC[C@H]1C(=O)N[C@@H](CC(=O)O)C(=O)N[C@H](C(=O)N[C@@H](CO)C(=O)N[C@@H](CCC(N)=O)C(=O)N[C@H](C(=O)N[C@@H](CCC(N)=O)C(=O)N[C@@H](CC(=O)O)C(=O)N1CCC[C@H]1C(=O)N[C@@H](CC(N)=O)C(=O)N[C@@H](CC(=O)O)C(=O)N[C@@H](CCC(N)=O)C(=O)N[C@@H](Cc1ccc(O)cc1)C(=O)N[C@@H](CCC(=O)O)C(=O)N1CCC[C@H]1C(=O)N[C@@H](Cc1ccccc1)C(=O)O)C(C)C)C(C)C [copper-64 labelled] | dynamic PET | mouse both sexes, CT26 tumour, untreated, tumour | intravenous, 100 µCi/mouse, 750 s | – | SUVmean | 1.06 SUV |
| CC(C)(CCCC/C=C/CCCCCC(C)(C)C(=O)O)C(=O)O | – | beagle dog, both sexes | oral, dose not given, 10 h | – | plasma concentration | 10600 ng/mL |
| NC1CCN(C(=O)Oc2ccc(C3CCCC4(C3)OOC3(O4)C4CC5CC(C4)CC3C5)cc2)CC1 (racemic) | – | citrate buffer | 0 h, anaerobic, with: 50 mM ferrous iron | – | parent remaining | 100% |
| O=C(NS(=O)(=O)c1cccs1)c1cc2ccccc2n1Cc1ccc(Br)c2ccccc12 | – | Kunming mice both sexes | oral | – | MTD | > 1000 mg/kg |
| CC[C@H](C)[C@@H]1NC(=O)[C@@H](NC(=O)[C@H](CCCCN)NC(=O)[C@H](CC(C)C)NC(=O)[C@H](CC(C)C)NC(=O)CNC(C)=O)CN(C)C(=O)c2ccc(=O)n(c2)CC[C@@H](C(=O)N[C@@H](CC(C)C)C(N)=O)NC(=O)[C@H]([C@@H](C)O)NC(=O)[C@H](CCCCN)NC1=O | CD, BeStSel | 50% trifluoroethanol | 66 µM | – | helicity | 76.1% |
| N=C(N)NCCC[C@H](NC(=O)[C@H](CCCNC(=N)N)NC(=O)[C@H](CCCNC(=N)N)NC(=O)[C@H](CCC(N)=O)NC(=O)[C@H](CCCNC(=N)N)NC(=O)[C@H](CCCNC(=N)N)NC(=O)[C@H](CCCCN)NC(=O)[C@H](CCCCN)NC(=O)[C@H](CCCNC(=N)N)NC(=O)CNC(=O)[C@H](Cc1ccc(O)cc1)NC(=O)[C@H](Cc1ccccc1)NC(=O)[C@H](Cc1ccccc1)NC(=O)[C@H](Cc1ccccc1)NC(=O)OCC1c2ccccc2-c2ccccc21)C(=O)O | – | C57BL/6 mice | intraperitoneal, 10 mg/kg, 2 h | direction not given | health score | 5 |
| CN1Cc2cc(Cl)ccc2-n2c(nnc2C2CCN(c3cccc(F)n3)CC2)C1 | mass spectrometry | male Sprague-Dawley rat, brain | intravenous, 0.03 mg/kg, 5 min, single dose | – | concentration | 7.23 ng/mL |
| CCCCC[C@H]1C(=O)N[C@H](C)C(=O)N(C)[C@@H](CCCCC)C(=O)N[C@H](C)C(=O)N(C)[C@@H](CCCCC)C(=O)N[C@H](C)C(=O)N(C)[C@@H](CCCCC)C(=O)N(C)[C@H](C)C(=O)N1C | PAMPA | – | 500 µM, pH 7.4, UV/ELSD/MS detection | – | log Papp | -5.8 |

A few entries again:
| SMILES | test | system | conditions | scale | measurement | result |
| --- | --- | --- | --- | --- | --- | --- |
| C=Cc1c(C)c2cc3nc(c(CC(=O)[O-])c4[n-]c(cc5nc(cc1[n-]2)C(C)=C5CC)c(C)c4C(=O)[O-])C(CCC(=O)[O-])C3C.[Cu+2].[Na+].[Na+].[Na+] (stereo not shown) | – | Wistar rat, male | oral, 250 mg/kg daily, 28 days | – | serum ALT | 54.3 ± 5.54 U/L |
